Measured values from different studies.
Lines come from different studies, so protocols differ. ± gives the spread as reported.

`CCCC[C@H](NC(=O)CNC(=O)CNC(=O)CN1CCN(CC(=O)O)CCN(CC(=O)O)CCN(CC(=O)O)CC1)C(=O)N[C@H]1CC(=O)NCCCC[C@@H](C(N)=O)NC(=O)[C@H](Cc2c[nH]c3ccccc23)NC(=O)[C@H](CCCNC(=N)N)NC(=O)[C@@H](Cc2ccccc2)NC(=O)[C@H](Cc2c[nH]cn2)NC1=O` [copper-64 labelled] gave a tissue uptake of 2.46 ± 0.4 %ID/g (female C57 mouse, B16/F1 melanoma, skin; intravenous, 0.037 MBq, 0.5 h).
`Cc1nc(C)c(C=[N+]([O-])C(C)(C)C)nc1C` gave an AUC(0-tau) of 23800 ng·h/mL (healthy human, both sexes, serum; oral, 600 mg twice daily, 7 days).
`Oc1cc2nc(c1)CNCCCNCCCNCCCNCCCNCCCNC2` has a log β of 54.7 (potentiometric titration; 0.15 M NaClO4; 298.1 K, overall protonation).
`Cn1c(=O)oc2ccc(-c3ccc(CC(C#N)NC(=O)C4CNCCCO4)c(F)c3)cc21` (stereo not shown) — result for “subjects with adverse event”: 16.7% (item: skin exfoliation; human; 60 mg, treatment-related, single dose, fasted).
Under “tumour to tissue ratio”, `CC(C)[C@H](NC(=O)[C@@H]1CCCN1C(=O)[C@H](CCCNC(=N)N)NC(=O)[C@H](CS)NC(=O)[C@H](Cc1c[nH]c2ccccc12)NC(=O)[C@H](CCCNC(=N)N)NC(=O)[C@@H](Cc1ccccc1)NC(=O)[C@H](Cc1c[nH]cn1)NC(=O)[C@H](CCC(=O)O)NC(=O)[C@H](CS)NC(=O)[C@H](CS)NC(=O)CNC(=O)[C@@H]1CC(=O)N[C@@H](CCCNC(=N)N)C(=O)NCC(=O)N[C@@H](CC(=O)O)C(=O)N[C@H](Cc2ccc(O)cc2)C(=O)N1)C(N)=O` [technetium-99m labelled] is recorded as 2.91 (C57 mouse, female, B16/F1 melanoma; intravenous, 0.037 MBq, 4 h; reference: tumour over liver).
With `COc1cc2c(cc1OC)CN(CCCCn1ccc3cc(OCC[18F])ccc31)C2` the kidney uptake was 6.18 ± 1.02 %ID/g (male ICR mice; intravenous, 60 min post-injection).
The measured concentration of `Cc1ccccc1/N=N/c1ccc(/N=N/c2c(O)ccc3ccccc23)c(C)c1` is reported as 0.216 µg/L (extracted rat blood QC samples; 0.2 µg/L, 2 h, room temperature, short-term stability).
For `C(=NNC1=NCc2ccccc2-c2c1[nH]c1ccccc21)c1ccccn1`, the pKa2 was 5.03 ± 0.01 (UV-vis titration; DMSO-water 30 to 70% w/w; 298 K, ionic strength 0.10 M KCl).
`Oc1cc(F)ccc1Oc1ccccc1` has a clearance of 333 mL/min/kg (CD-1 mice, plasma; subcutaneous, 100 mg/kg).
The partition coefficient of `CCCCn1ccc(=O)c(O)c1C` is reported as 5.02 (octanol/MOPS buffer; pH 7.4).
`C#Cc1cccc(N(C(=O)CCl)C(C(=O)NC2CCCCC2)c2ccccn2)c1` (racemic): “conversion to pyridinium salt” greater than 50% (HPLC-MS; DPBS; 3 h, 37 °C).
With `CCC(=O)N[C@@H](C)C(=O)OCC(=O)N[C@@H](C)C(=O)O` the depolymerization half-life was 88.6 h (water; pH 7, 25 °C).
For `COc1cc(-c2nc3ccccc3s2)cc(CN(C)Cc2ccccn2)c1O`, the pKa2 was 6.39 (methanol-water; 50 µM, 0.1 M NaCl).
`[11CH3]c1ccc2nc(C3CCC3)n(-c3ccc4[nH]ncc4c3)c2n1`: “absorbed radiation dose” 2.3 µSv/MBq (human male, thymus).
`O=C(O)C1CN(Cc2ccc(-c3noc(-c4ccc(OCC[18F])c(C(F)(F)F)c4)n3)cc2)C1` has a tracer uptake of 0.015 %ID/g (rat, brain; intravenous, 2 h).
`CCCC[C@@H]1NC(=O)[C@@H](NC(=O)[C@H](CCC(=O)O)NC(=O)CNC(=O)CN2CCN(CC(=O)O)CCN(CC(=O)O)CCN(CC(=O)O)CC2)CCCCNC(=O)C[C@@H](C(N)=O)NC(=O)[C@H](C(C)C)NC(=O)[C@@H]2CCCN2C(=O)[C@H](CCCNC(=N)N)NC(=O)CNC(=O)[C@H](Cc2c[nH]c3ccccc23)NC(=O)[C@H](CCCNC(=N)N)NC(=O)[C@@H](Cc2ccccc2)NC(=O)[C@H](Cc2c[nH]cn2)NC(=O)[C@H](CCC(=O)O)NC1=O` [gallium-67 labelled] — result for “tumour to liver ratio”: 32.5 (C57 mice with B16/F1 melanoma; intravenous, 0.037 MBq/mouse, 4 h; reference: tumour over liver).
`O=C(O)[C@@H]1C[C@@H](O)CN1C(=O)[C@@H]1CCCN1` gave a log beta of 15 (potentiometric titration; 37 °C, MA complex, with: Fe(III)).
`NC[C@@H](C(=O)Nc1ccc(-c2cn[nH]c2)cc1)c1ccccc1`: “conjunctival redness score” 0 (OECD 405 eye irritation; New Zealand White rabbit, eye; topical, 0.1%, 32 h (day 2), scale 0 to 3; direction not given).
`O=c1[nH]c(=O)n(C2OC(CO)C(O)C2O)cc1-n1nnc2c1CCC1C(CO)C1CC2` (mixture of isomers) has a brightness of 0.12 M⁻¹ cm⁻¹ (methanol).
`Cc1[nH]c(/C=C2\C(=O)Nc3ccc(F)cc32)c(C)c1NC(=O)CCN1CCN(C)CC1` has an accuracy deviation of -10.9% (dog plasma; 80 ng/mL, 30 d frozen, -80 °C).
For `NC12CNCCNCC(NCc3ccc(CNC(=O)CCCC(=O)NCc4ccc(-c5nncnn5)cc4)cc3)(CNCCNC1)CNCCNC2.[64Cu+2]`, the absorbed dose was 0.0394 rad/mCi (OLINDA dosimetry; bladder wall; pretargeting, 24 h interval).
With `CC(C)[C@H](NC(=O)CNC(=O)[C@H](CCC(N)=O)NC(=O)[C@H](C)N)C(=O)O` the AUC(0-last) was 8 ng·h/mL (human, plasma; intravenous bolus, 3 mg/kg single, 2 min infusion, geometric mean).
For `COC(=O)c1ccc2c(c1)NC(=O)/C2=C(\Nc1ccc2c(c1)CCN2C(=O)CN1CCOCC1)c1ccccc1`, the half-life was 6.71 h (beagle dog, plasma; oral, 50 mg/kg).
`N=C(N)NCCC[C@@H]1NC(=O)[C@H](Cc2c[nH]c3ccccc23)NC(=O)[C@@H](CC2CCCCC2)NC(=O)[C@@H]2CCCN2C(=O)[C@@H](NC(=O)CCc2ccccc2)CCCNC1=O` — result for “redistribution rate constant (K21)”: 1.08 h⁻¹ (C57BL/6J mouse, spinal cord; intraperitoneal, 1 mg/kg, single dose, two-compartment model).
For `CC(C)c1cnc(-c2cc(Cl)ccc2F)cc1Nc1ccncc1C(=O)NC(CO)CO`, “patients with related SAE” read 0% (item: hepatic haemorrhage; human patients; oral, dose not given, grade 5).
The quantum yield of `NCCCC(=O)OCC(=O)c1ccc(O)c(C(F)(F)F)c1.O=C(O)C(F)(F)F` is reported as 0.16 (photolysis, item: GABA appearance; unbuffered water).
`COc1cc(OC)cc(C2=C3C(C)=C(I)C(C)=[N+]3[B-](F)(F)n3c(/C=C/c4c[nH]c5ccc([N+](=O)[O-])cc45)c(I)c(C)c32)c1` gave an emission maximum of 630 nm (dichloromethane).
With `CC(C)(O)c1ncc([S@](N)(=O)=NC(=O)Nc2c3c(cc4c2CCC4)CCC3)s1` the AUC(0-tau) was 163000 ng·h/mL (healthy human; oral, 200 mg once daily, day 1, spray-dried dispersion, geometric mean).
With `Brc1ccc(Nc2nc(NN=Cc3c[nH]c4ccccc34)nc(N3CCOCC3)n2)cc1` the metabolic bioavailability was 20.1% (mouse liver microsomes; 0.1 µM, pH 7.4).
`CC[C@H](C)[C@H](NC(=O)[C@H](CC(C)C)NC(=O)[C@H](Cc1c[nH]c2ccccc12)NC(=O)[C@H](C)NC(=O)[C@@H](NC(=O)[C@H](Cc1ccccc1)NC(=O)[C@H](CC(=O)O)NC(=O)[C@H](CCCNC(=N)N)NC(=O)[C@H](C)NC(=O)[C@H](C)NC(=O)[C@H](CC(C)C)NC(=O)[C@H](C)NC(=O)[C@H](CC(=O)O)NC(=O)[C@H](CC(C)C)NC(=O)[C@@H](NC(=O)[C@@H](NC(=O)[C@H](C)NC(=O)[C@H](CC(C)C)NC(=O)[C@H](CCC(=O)O)NC(=O)[C@H](CO)NC(=O)[C@H](CO)NC(=O)[C@H](Cc1ccccc1)NC(=O)[C@@H](NC(=O)CNC(=O)[C@H](CCC(=O)O)NC(=O)CNC(=O)[C@@H](N)Cc1c[nH]cn1)[C@@H](C)O)[C@@H](C)O)[C@@H](C)CC)[C@@H](C)CC)C(=O)N[C@@H](C)C(=O)N[C@H](C(=O)N[C@@H](CCCCN)C(=O)N[C@H](C(=O)N[C@H](C(=O)N[C@@H](CC(=O)O)C(=O)N[C@@H](CCCCN)C(=O)N[C@@H](CCCCN)C(=O)O)[C@@H](C)O)[C@@H](C)CC)[C@@H](C)O` has an AUClast of 6.59 nM·h (immunoaffinity LC-MS/MS; healthy human subjects, plasma; subcutaneous, 5 mg once weekly, day 36 after 6 doses, steady state, geometric mean).
For `COc1cc(NC(C)=O)c2c(c1O)-c1c(OC)c(OC)cc3c1C(C2)N(C)CC3` (stereo not shown), the remaining compound was 95.4 ± 3.2% (rat, plasma; 0.5 µg/mL, 40 d, -20 °C, long-term storage).
For `COC(=O)Cn1c(=O)c(Cc2ccccc2)nc2ccccc21`, the safe concentration was 0.08 ± 0.003 µM (MTT; rat primary colonocytes, Albino rat, male; 72 h, concentration at 100% viability).
`NCCCC(=O)OCC(=O)c1ccc(O)cc1F.O=C(O)C(F)(F)F` has a quantum yield of 0.06 (photolysis, item: disappearance of compound; aqueous HEPES buffer with LiClO4; pH 8.2).
For `CCCC(CCC)NC(=O)c1ccc(O)c(O)c1`, the Cmax ratio was 2.63 (male Sprague-Dawley rats, plasma; oral, 50 mg/kg of parent drug; reference: 50 over 20 mg/kg dose).
`C[C@]12C[C@H](c3ccc(S(C)(=O)=O)cc3)C3=C4CCC(=O)C=C4CC[C@H]3[C@@H]1CC[C@@]2(O)C(F)(F)C(F)(F)F` has a fraction unbound of 0.05 (rabbit, plasma).
`CN[C@@H](CCOc1cccc2ccccc12)c1ccccc1` has a terminal half-life of 15.2 ± 4.16 h (healthy male humans, plasma; oral, 60 mg of dapoxetine).
`CCCCCCCCCCCCCCCCCC(=O)N[C@@H](CCCNC(=N)N)C(=O)N[C@@H](CCCNC(=N)N)C(=O)N[C@@H](CCCNC(=N)N)C(=O)N[C@@H](CCCNC(=N)N)C(=O)N[C@@H](CCCNC(=N)N)C(N)=O` gave a hydrodynamic radius of roughly 99 nm (dynamic light scattering; self-assembled micelles; 25 °C).
The distribution volume of `COC(=O)c1ccc(-c2cn(Cc3cc(Cl)ccc3O[11CH3])nn2)cc1` is reported as 0.697 mL/cm³ (PET, one-tissue compartment model; rhesus monkey, brain Midbrain; dose not given).
For `CCc1nc(N)nc(N)c1C#CC(C)c1cc(-c2cc(C)nc(C)c2)ccc1Cl` (stereo not shown), “number of metabolites” read 10 (pooled human hepatocytes; 10 µM, 4 h).
`CC/C=C\C/C=C\C/C=C\C/C=C\C/C=C\CCCCOC(CC)C(=O)O` (stereo not shown) gave a tissue concentration of 47.3 µg equivalents/g tissue (radioactivity, 14C-labelled; Wistar rat, male, kidney medulla; oral, 100 mg/kg, 1 h).
The fluorescence lifetime of `COc1ccc2cc(-c3ccc(-c4ccc(C)cn4)nc3)oc2c1` is reported as 1.3 ns (TCSPC; benzene).
Under “percent of dose in urine”, `CN1CCC[C@]1(C)/C=C/S(=O)(=O)NC(=O)Nc1c2c(cc3c1CCC3)CCC2` is recorded as 50.3% (human, urine; oral, 400 mg single dose).
`CC(=O)[CH](C(C)=O)[Pt-2]1([S+](C)C)[O]C(C)=CC(C)=[O+]1` (stereo not shown) gave a fecal excretion of 2.5% (item: platinum; rat, feces; 24 h; reference: dose).

A few entries again:
For `NC12CNCCNCC(NCc3ccc(CNC(=O)CCCC(=O)NCc4ccc(-c5nncnn5)cc4)cc3)(CNCCNC1)CNCCNC2.[64Cu+2]`, the absorbed dose was 0.0394 rad/mCi (OLINDA dosimetry; bladder wall; pretargeting, 24 h interval).
With `Brc1ccc(Nc2nc(NN=Cc3c[nH]c4ccccc34)nc(N3CCOCC3)n2)cc1` the metabolic bioavailability was 20.1% (mouse liver microsomes; 0.1 µM, pH 7.4).
Under “percent of dose in urine”, `CN1CCC[C@]1(C)/C=C/S(=O)(=O)NC(=O)Nc1c2c(cc3c1CCC3)CCC2` is recorded as 50.3% (human, urine; oral, 400 mg single dose).
The measured concentration of `Cc1ccccc1/N=N/c1ccc(/N=N/c2c(O)ccc3ccccc23)c(C)c1` is reported as 0.216 µg/L (extracted rat blood QC samples; 0.2 µg/L, 2 h, room temperature, short-term stability).
